Experimental data of several laboratories.
Parts stem from different laboratories: compare values within a part only. Positions count from the first letter of the parent shown.

Block 1 — method: protein-binding microarray; molecule type: double-stranded DNA, one strand shown; matrix: in vitro; tested at: 0.8 µM; notes: whole 60-bp probe, no competitor; reading: higher = stronger binding
Target: Centromere-binding protein 1, full length, N-terminal tag (CBF1, Saccharomyces cerevisiae, UniProt P17106, residues 1-351)
Chain of UniProt P17106 (whole entry, looked up): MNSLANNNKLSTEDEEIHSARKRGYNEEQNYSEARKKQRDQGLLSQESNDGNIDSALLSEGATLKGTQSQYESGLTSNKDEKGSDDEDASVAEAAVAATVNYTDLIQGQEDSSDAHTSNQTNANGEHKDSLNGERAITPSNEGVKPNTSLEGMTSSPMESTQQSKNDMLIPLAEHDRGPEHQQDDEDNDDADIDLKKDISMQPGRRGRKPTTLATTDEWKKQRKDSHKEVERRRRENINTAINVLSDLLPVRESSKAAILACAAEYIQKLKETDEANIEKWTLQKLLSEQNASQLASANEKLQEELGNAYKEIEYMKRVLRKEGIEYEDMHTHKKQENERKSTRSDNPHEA
Sequence | fluorescence intensity [a.u.]
CTATGTGGAGCAAGCCACGCCATGTGATTAACCTTCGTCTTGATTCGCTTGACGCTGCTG | 2950
CTATTTTGCGGGCATCACGTTCGTCGTGACATATTCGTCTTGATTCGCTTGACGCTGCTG | 995
CTACCGTAGTCATCGTGACTGGTTGACGTATTATTCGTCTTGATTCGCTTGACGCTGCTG | 786
GAACTTGTCTCAGGTCACACCATTCACGATTCCTAGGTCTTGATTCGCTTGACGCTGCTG | 735
GAACACAGGTCCAATCACGCAGCTTCATTACAGTAGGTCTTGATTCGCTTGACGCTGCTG | 593
CTAAAACCGTAATGTCACATTTTGCATATATCTTTCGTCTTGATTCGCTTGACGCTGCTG | 609
GAATTCACATTGGCTGACGTCGCGCTTTCCTTATAGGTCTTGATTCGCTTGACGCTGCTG | 485
CTAATCTAAATAATTAATGTGCACGTCAATATATTCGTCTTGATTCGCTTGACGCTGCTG | 545
CTAGTATGCTGAACCAACGTGTTGCTTGCCAACTTCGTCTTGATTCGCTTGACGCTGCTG | 499
CTAAAAGGTCAGTATTTGGTGATGAAGTTGAATTTCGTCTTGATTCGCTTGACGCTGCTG | 511
GAAGTACATGTGAAGCATGTGGTAACAGATGGATAGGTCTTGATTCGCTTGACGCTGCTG | 956
CTACAGTTGGGTCTTCATGTGCCACTCACATGCTTCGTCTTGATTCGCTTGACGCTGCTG | 745
CTACGAGAAAACTTGCGCGTGCAGTAGGAAAATTTCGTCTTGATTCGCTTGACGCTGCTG | 757
GAATCCAGTTAGGAGAGCGTGGTGTTCTCATCCTAGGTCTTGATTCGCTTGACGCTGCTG | 508
CTAATTTAGTGTTGCCACCAGATGGGTCTATTTTTCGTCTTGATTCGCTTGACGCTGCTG | 497
CTAGTCTTATTTTGTTAGGTGATGATCTAATTTTTCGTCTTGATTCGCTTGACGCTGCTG | 599
GAAATAACATTACCATACGTGATCTTATTAAACTAGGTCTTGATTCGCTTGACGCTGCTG | 710

Block 2 — target: CCNB2, cyclin fold, Cln2 fusion (human); method: yeast growth competition, sequencing; matrix: yeast; notes: weak parent motif; baseline: not given; reading: higher = stronger binding
Starting sequence: RB1 docking peptide (human); PKPLKKLRFDIEG
Change | normalised enrichment score
PKPLKKLREDIEG [F9E] | -0.112
PKPLKKLTFDIEG [R8T] | 0.276
PAPLKKLRFDIEG [K2A] | 0.289
PKHLKKLRFDIEG [P3H] | -0.317
PKPLKKERFDIEG [L7E] | -0.249
PKPLKKLRFDIFG [E12F] | 1.08
PKPYKKLRFDIEG [L4Y] | 0.664
PKPLKKLDFDIEG [R8D] | 0.194
PKPLKKLRGDIEG [F9G] | 0.116
PKPLKKLRFDIEP [G13P] | 0.422
PKPLKKLRFDING [E12N] | 0.846
PKPLKKLRFDIER [G13R] | 0.982
PQPLKKLRFDIEG [K2Q] | 0.173
PKMLKKLRFDIEG [P3M] | 0.542
PLPLKKLRFDIEG [K2L] | 0.529
PKPLKKLRSDIEG [F9S] | 0.2
PKPLKKLCFDIEG [R8C] | -0.292
PKPLKKLRFDREG [I11R] | -0.0887
PKPLNKLRFDIEG [K5N] | 0.35
MKPLKKLRFDIEG [P1M] | -0.164
PKGLKKLRFDIEG [P3G] | 0.617

Block 3 — method: protein-binding microarray; molecule type: double-stranded DNA, one strand shown; matrix: in vitro; tested at: 2540 nM top; notes: 60-bp whole probe; with: salmon DNA 0.4 mg/ml; baseline: random background probes; reading: higher = stronger binding; constant ends, left off below: GCCTAGCAC … GTCTTGATTCGCTTGACGCTGCTG
Target: Interferon regulatory factor 3, full length, phosphomimetic (IRF3, Homo sapiens, UniProt Q14653, residues 1-427, S386D/S396D/S398D/S402D/T404D/S405D)
Construct (chain): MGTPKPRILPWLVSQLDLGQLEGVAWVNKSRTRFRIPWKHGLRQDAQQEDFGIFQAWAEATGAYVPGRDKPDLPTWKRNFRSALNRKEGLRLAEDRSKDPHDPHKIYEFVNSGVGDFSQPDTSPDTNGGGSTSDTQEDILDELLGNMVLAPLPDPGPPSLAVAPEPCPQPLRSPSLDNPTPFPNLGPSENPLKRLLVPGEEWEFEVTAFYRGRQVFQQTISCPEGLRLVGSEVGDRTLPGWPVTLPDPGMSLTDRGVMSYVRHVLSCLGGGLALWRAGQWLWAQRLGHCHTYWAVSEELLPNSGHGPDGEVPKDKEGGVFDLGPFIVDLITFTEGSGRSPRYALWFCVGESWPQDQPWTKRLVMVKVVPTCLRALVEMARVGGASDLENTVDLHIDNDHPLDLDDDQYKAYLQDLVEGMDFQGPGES
Sequence | fitted relative affinity
TTAGGACTGGCTTTCGGTTAGTGCTAG | 0.563 z-score
TTAGCACTGGGTTTCGGTTAGTGCTAG | 2.94 z-score
TTCGGTTTCCTTATCCTTTAGTGCTAG | 9.17 z-score
GACGGTTTCAGGACTGGGGACGTGCTA | 3.06 z-score
GACGGTATCGGGTATCGGGTCGTGCTA | 2.09 z-score
GTAGGACTGCTTCTCCTTTAGTGCTAG | -0.103 z-score
TTAGATATCGGTATCGGTTAGTGCTAG | 3.24 z-score
TTTGGACTGGGGACTGGGTTAGTGCTA | -0.971 z-score
TTAGGTCTCGGACTGGGGTAGTGCTAG | -0.455 z-score
CAAGGCAAGAAACAAACAACGTGCTAG | -0.306 z-score
TCACCTTTGAAAGTTGTTACTGTGCTA | 0.311 z-score
CCAGACTTGATTTTGGTCTTGTGCTAG | 0.248 z-score
TTATGTCTCCTTCTCCTTTAGTGCTAG | 3.98 z-score
GACGATTTCAGTCTCAAGACGTGCTAG | 2.23 z-score
TTAGAACTGAGAATCGATTAGTGCTAG | -0.309 z-score
ATAGATTTCAGTTCCGATTAGTGCTAG | 3.74 z-score
TTAGGACTGGACTATCGGTAAGTGCTA | -0.381 z-score
GACGGTTTCTGTTTCGGGACGTGCTAG | 7.57 z-score
TTAGGTATCCTACGGCTTTAGTGCTAG | 0.382 z-score
GTCGGTCTCCTTATCCTGACGTGCTAG | 4.19 z-score
TGAGTAATTACATAATTACGGTGCTAG | 0.0633 z-score
TTAGGTATCGACACTCGGTTAGTGCTA | 0.17 z-score

Other studies, line by line
Molecule | target | test | system | setting | how to read | endpoint | value
PhoQ, residues 284 288 289 292 302 303 SCEHLI | PhoP, residues 12 14 15 18 19 QQAYL (Escherichia coli, UniProt P23836) | Sort-seq, item: YFP reporter | E. coli | PhoQ-PhoP variant library, with: 10 µM Mg2+ | baseline: high Mg2+ state, higher = stronger signaling | fold induction | 12.5

For quick reference, copied from above (block 3):
Sequence | fitted relative affinity
TGAGTAATTACATAATTACGGTGCTAG | 0.0633 z-score
TTAGGTATCGACACTCGGTTAGTGCTA | 0.17 z-score
TCACCTTTGAAAGTTGTTACTGTGCTA | 0.311 z-score
ATAGATTTCAGTTCCGATTAGTGCTAG | 3.74 z-score
GACGATTTCAGTCTCAAGACGTGCTAG | 2.23 z-score
CAAGGCAAGAAACAAACAACGTGCTAG | -0.306 z-score
GACGGTTTCTGTTTCGGGACGTGCTAG | 7.57 z-score
TTCGGTTTCCTTATCCTTTAGTGCTAG | 9.17 z-score
